Results from different studies.
Each numbered part is a random draw from the data of one study; scales do not carry over between parts. Changes are numbered by the printed parent chain.

Sample 1
Target: CCNE1, cyclin fold, Cln2 fusion (human)
Technique: yeast growth competition, sequencing
Sample: yeast
Notes: weak parent motif
Relative to: not given
Reading: higher = stronger binding
Measurement: normalised enrichment score
Starting sequence: WEE1 docking peptide (human); HKTFRKLRLFDTP
L7C: 1.35
K6A: 0.54
P13V: 1.19
F4M: 0.489
K6I: 1.01
P13E: -0.579
P13H: -0.984
H1W: 1.58
P13A: 0.42
L9R: 0.179
T12A: 0.708
P13D: 0.693
F4T: 1.28
L9M: 0.344
T12I: 1.22
R8L: 0.38
D11I: 0.499
K2V: 0.638
L9E: -1.54
T3R: -0.0768
R8Y: 2.28
P13I: 0.102
T3G: 1.43
K2M: -0.0763
L9P: -0.0401

Sample 2
Target: RING finger protein unkempt homolog, zinc fingers 1-6, GST-SBP tag (UNK, Homo sapiens, UniProt Q9C0B0, residues 30-357)
Technique: RNA Bind-n-Seq
Form: RNA
Sample: in vitro
Concentration: not given
Notes: RNA with constant flanks, human-mouse chimeric sites, ends assumed
Relative to: input RNA pool
Reading: higher = stronger binding
Measurement: bound/input enrichment
Constant ends, left off below: GGGAGUUCUACAGUCCGACGAUC … CAACAGAGGAUUGAGCAUCA
Residues (chain): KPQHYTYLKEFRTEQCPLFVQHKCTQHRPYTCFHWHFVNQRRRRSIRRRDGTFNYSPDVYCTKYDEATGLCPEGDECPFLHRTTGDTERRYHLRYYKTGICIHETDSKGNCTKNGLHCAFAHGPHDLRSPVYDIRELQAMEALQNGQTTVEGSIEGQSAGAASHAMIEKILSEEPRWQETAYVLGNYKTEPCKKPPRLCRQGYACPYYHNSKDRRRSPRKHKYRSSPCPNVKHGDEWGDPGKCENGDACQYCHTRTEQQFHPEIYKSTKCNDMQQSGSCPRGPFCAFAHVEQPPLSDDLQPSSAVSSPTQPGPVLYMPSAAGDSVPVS
GUGACUGGUGUUAAGAUUUCCCCUCAGCAAAGAAGUGCAGUAGUCACCAUAAUUCCAUCUGUGGUGAAUGCCAAUCAGAUAAAAGAGCUGGUCCCAGACCUCAGUUUAGACAUGGGAACU: 0.263 ratio
GUGACUGGUGUUAAGAUUUCCCCUCAGCAAAGAAGUGUAGCAGUGACCAUAAUUCCAUCUGUGGUGAGUGCCAGUCAGAUAAAAGAGCUGGUCCCAGACCUCAGUUUAGACAUGGGAACU: 0.312 ratio
UAUCCAACUUUCUUGCCACGUUUUGAAUUCCAAGACAUUAUUCCUCCAGAUGACUUCCUAACGAGUGAUGAAGAGCAAGAUUUGGUUUUAUUUGGAACUAUGAGAGGACAAGUUGUUGGA: 0.151 ratio
GACAGUGAAGGCCCACUGUGUGAAUUGCUUUUUUUCUUCCUGACUGCAAUCUUCCAGGCAAUAGCUGAAGAAGAGGAGGAAGUAGCCAAAGAGCAACUAACUGAUGCUGACACCAAAGAU: 0.0647 ratio
ACUCAGAGAUCCACCUCCCAAAGUGCUGGGAGUAAAGGUGUGGCCACCACACCUAACUUGAUGGAUAUAUAUUUUUUCUCUUUUAUGUCUUCCUGUUCGUCCAGGGAGCAAGAACGGGUU: 0.311 ratio
UAAAUUAGCCAGCACCAUUUCUGUUUCUCCCUGGGCUGCGGAAAGCCAGAAGAUUUUAUCUAGCUUAUACAAGGCUGCUGGAGCUUGCUCUUUUUUUCCACGAGGGUGUUUUUGGCUGCA: 0.819 ratio
ACCAUUUUCGCGGUUCAGGCUUUGUGUUGUAUUUACUCUAUGUAUUAAAUUAUUAUUCUGCUUAGCUUAUAAUAAGGAUAAUUGCAUUUAAAGAGGUUACUGAAUGUUACUCUGAAACUU: 0.374 ratio
UGUGCAUAUGAUGCUUGAGAUGGUUUUUGCAAAAGCAGAAAUCGCUGCAAGGUCAUUCUAAUAGAGAAAAGUGGUAUUUUAAACCUUUGAAAUAAAUGGAUGUAACUGUACCUUGGUACA: 0.369 ratio
UAUAUCACCAAUGUCCUACAAAAUCCUGAUUUGGCUCUGAGAAUGGCUGUGCGGAACAACUUAGCUGGUGCUGAAGAACUCUUUGCCCGGAAAUUUAAUGCUCUCUUUGCCCAGGGAAAC: 0.471 ratio
UCUUAACUUAUUCAUUUAACUUAUUUUUAGCACUUAGUAAAUAUUGUUAGUCUUAGUCAAUAGCUCACAUUUUUUGAGAAGCAUGCCCUCCCUGUCCAUUUGUCUUAUAACAUGACCCAG: 391 ratio
GACCCACAGUGGUCUGAGGAGCAACUCAUUGCUGCAAAAUUUUGCUUUGCUGGCCUUGUUAUAGGGCAGACUGAAGUGGACAUCAUGAGUCAUGCCACACAAGCUAUUUUUGAAAUUCUG: 0.169 ratio

Sample 3
Target: Interferon regulatory factor 5, full length, phosphomimetic (IRF5, Homo sapiens, UniProt Q13568-2, residues 1-514, K96S/S451D/S453D/S456D/S462D)
Technique: protein-binding microarray
Form: double-stranded DNA, one strand shown
Sample: in vitro
Concentration: 250 nM
Notes: 60-bp whole probe
With: salmon DNA 0.4 mg/ml
Relative to: random background probes
Reading: higher = stronger binding
Measurement: log fluorescence
Constant ends, left off below: GCCTAGCAC … GTCTTGATTCGCTTGACGCTGCTG
TTAGGACTGGTACTGGGTTAGTGCTAG: -0.667 z-score
TTAGAACTGGGGTTTTGATTAGTGCTA: 0.341 z-score
GCCGGTTTCGGACTGGGGACGTGCTAG: 4.87 z-score
GAGGGTTTCCTTATCCTGACGTGCTAG: 0.124 z-score
TTCATTATTGTTTCCTCTTTGTGCTAG: 1.57 z-score
TCATCTGTCATTTTCTCACTGTGCTAG: 1.15 z-score
GGCTGTTTGGTTCTTATCCTGTGCTAG: -0.162 z-score
TTAGAACTGGGGACTGGCTTAGTGCTA: -0.397 z-score
TTGGGTCTCCTTATCCTTTAGTGCTAG: -0.378 z-score
TTAAATATCAGTATCGATTAGTGCTAG: 8.42 z-score
TTAGGACGGCTTATCCTTTAGTGCTAG: -0.641 z-score
AGAGCTAAGTGAGTGTCATCGTGCTAG: -0.541 z-score
CCTAATTCTCTTTTCACTTTGTGCTAG: 1.3 z-score
AACAGGAGCAGATGGGAAGTGTGCTAG: -0.325 z-score
GACGGTTTCCATTCCCTGACGTGCTAG: 0.93 z-score
CTCAAAGTCTTTTATGGTATTGTGCTA: 0.647 z-score
TTTGATTTCAGACTGGATTAGTGCTAG: 0.711 z-score
CTCATTTTCATTTTGTGTCTGTGCTAG: 2.82 z-score
TTAGGTATCGACTATCGCTTAGTGCTA: 5.47 z-score
GACGAATTGAGTATCGAGACGTGCTAG: 2.05 z-score
GACGGTATCCTTACCCTGACGTGCTAG: -0.168 z-score
CTAATATTCTGCTTTGCAATGTGCTAG: 0.513 z-score
TTAGGACTGCTACGGCTTTAGTGCTAG: -0.644 z-score
GACGGTATCGACTTTCGGGATGTGCTA: 7.37 z-score
GACGGACTGTGTTTCGGGACGTGCTAG: 2.17 z-score

Sample 4
Target: RNA binding protein fox-1 homolog 2, RRM domain, GST-SBP tag (RBFOX2, Homo sapiens, UniProt O43251-10, residues 100-194)
Technique: RNA Bind-n-Seq
Form: RNA
Sample: in vitro
Concentration: 365 nM
Notes: natural RNA segment, single round, ends assumed
Relative to: no-protein control
Reading: higher = stronger binding
Measurement: RBNS enrichment (R)
Constant ends, left off below: GGGAGUUCUACAGUCCGACGAUC … UGGAAUUCUCGGGUGCCAA
Residues (chain): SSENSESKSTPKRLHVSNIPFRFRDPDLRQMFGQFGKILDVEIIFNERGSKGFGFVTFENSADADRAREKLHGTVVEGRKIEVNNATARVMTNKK
GCAGUCAAGGAAAACUAGCCUUGAAUUUUUUUUAGAUAAAAUAAGAUGGUGAUAUGAAACAAAAAGUGGCAAUUAUUGCAGGUUUCCUUUUAGUUUACAAAAGUACUGGA: 0.625
AGAGAGGUCCAACCCCGUGUGGCCAGGCAGUGGCCCCUCACUCUUGCUUAGUGUCCAUCUCAUUUCUUGAUCAAAGCCACUUUAGUGAGAAAUAGGUACCAGUCCUCAGG: 0.251
GGGACACCUAGGUGGGAGCAUCGCUUGAAGCCAGGAGUUCAAGACCAGCUUGGGCAACGUAGUGAGACCCCUAUCUCUACAAAAAAUAAAAAAAUUAGCUGGGUGUGAUG: 0.674
GAAGAUGGGAGCCCUUGCGCUAAAGCUUCAUAGGGUUUUGUUGUUGUUUUCUUGCCUGUUUUAGGGGAGAGCUGAGGCCAGCUGCCCCUCCCCCAAGUGGCCAGGGAGGG: 0.668
UUCUGCCCCAGCUCUGAGACACUUGCAGAUCUUAAGGUCUGAGACUUGCUGAUUUUCUGGUUGGAGUGUUUUUUUGUAUUGCCAUAGUCCCUUCCCCCUGAAGCAAUAGC: 1.24
UAAGAGGUGACCCUGUGUUUUUUGUGAUAUUGAGGCAUUCAUACAGAGCUGCAGUUAGACGGGGUUACGGGGGCUAAAAGCAGAAAAAAAAUUCCAUUUCAUCGGGAUGG: 0.697
AAUAGAAGCAUAUAAAACAUUGUAUGUAAAUUGCAUCUUCAUACUAGCAAACAAGUUAACAAAUGAUAAUAAAUGCAAUUCAGUUUUGGAUGUUGGUCCACAUUGUCAAG: 0.526
AUGCACGUGCUUUGCCCUGGGUACAGCCAGAGCCCUUCAACCCCACCUUGGACUUGAGGACCUACCUGAUGGGACGUUUCCACGUGUCUCUAGAGAAGGAUUCCUGGAUC: 1.33
AAUUGAAUGGCAGUUAUCACUAAAUAAAAUUCUUUUCUGAGUCUCUCCCGAGAGUGGCAGUCCUUUGAAUCGCUUCCCAGGGUGAAAGAUGGAAAGAGAUGAGCCUAAGG: 0.323
UUUUUCUUCUCUUAAUGGGAAUCGUGAUGGUGUUGAGUUAUUUCACUGGUGGGGUUAAUAUAGCAUGUUAUCCUGUCUAUCUUUUGAAGAUUUCUGUAUAAGACUGUUGA: 3.46
CAAGAACGGUAUGCCAGUCAGGUCCUGGAAGUAAAAUGGAGGCACAAUAUAGCACUGACUGAGUUGUAAAGCCUCCUGCCUGGAGACUUCAGUUAUAGCUGUAAUAAUUA: 0.718
AUGGGUUUUGGAUUAGCAUCAGUCCUGUGUCACCAAGUGCCAAACAGCUGAGGGGUAGAAGUGGGACUCCUUUCCCGAGCCCCAGCAUGAGGCUGUGGUGUCAGGUUUAG: 5.69

Some of these lines once more (sample 3):
TTCATTATTGTTTCCTCTTTGTGCTAG: 1.57 z-score
TCATCTGTCATTTTCTCACTGTGCTAG: 1.15 z-score
GGCTGTTTGGTTCTTATCCTGTGCTAG: -0.162 z-score
TTAGAACTGGGGACTGGCTTAGTGCTA: -0.397 z-score
TTGGGTCTCCTTATCCTTTAGTGCTAG: -0.378 z-score
TTAAATATCAGTATCGATTAGTGCTAG: 8.42 z-score
TTAGGACGGCTTATCCTTTAGTGCTAG: -0.641 z-score
AGAGCTAAGTGAGTGTCATCGTGCTAG: -0.541 z-score
